Assay results collected from several papers.
Parts stem from different laboratories: compare values within a part only. Positions count from the first letter of the parent shown.

Set 1
Target: Histone acetyltransferase KAT6A, both winged helices, GST fusion (KAT6A, Homo sapiens, UniProt Q92794, residues 1-181)
Technique: protein binding microarray
Form: double-stranded DNA, one strand shown
Medium: in vitro
Tested at: not given
Setting: 8-mer, flanks averaged, mean of 2 arrays, mostly near background
Reference: not given
Reading: higher = stronger binding
Construct (chain): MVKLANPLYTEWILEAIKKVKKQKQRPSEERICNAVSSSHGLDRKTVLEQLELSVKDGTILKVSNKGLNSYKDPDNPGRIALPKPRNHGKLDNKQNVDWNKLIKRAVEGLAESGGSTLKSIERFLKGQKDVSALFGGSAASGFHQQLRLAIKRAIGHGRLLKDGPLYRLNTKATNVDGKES
With `CCTCAGGC` the E-score was -0.0778.
The E-score of `CAATCTGC` is reported as -0.053.
For `CTATCCCC`, the E-score was -0.194.
`CGGACAAC` has an E-score of 0.108.
`CCGTTCTA` gave an E-score of 0.122.
The E-score of `ACGTAGAC` is reported as -0.161.
With `CAGGCAAC` the E-score was -0.172.
For `ACGACCGG`, the E-score was 0.125.
`GCACACAC` has an E-score of -0.0129.
The E-score of `GCAGTCGC` is reported as 0.159.
`AACCACAA` has an E-score of 0.0517.
For `ACTGGGAT`, the E-score was -0.207.
The E-score of `AGATGTAG` is reported as -0.181.
`ATTCCCAA` has an E-score of -0.287.
The E-score of `GGAGTTTA` is reported as -0.0758.
With `ATAAGGCA` the E-score was -0.263.
With `CTGATAAG` the E-score was -0.0513.
`CTGAAACC` has an E-score of 0.0076.
`CATAGTCG` gave an E-score of 0.0951.
`ATGGCCAC` has an E-score of -0.0543.
`GCCGTACA` gave an E-score of 0.228.
`ATTAATTA` has an E-score of -0.118.
The E-score of `TAATAATA` is reported as -0.0218.
With `ACACACCT` the E-score was 0.0692.
`GATGACGA` has an E-score of -0.0672.

Set 2
Target: RNA binding protein fox-1 homolog 2, RRM domain, GST-SBP tag (RBFOX2, Homo sapiens, UniProt O43251-10, residues 100-194)
Technique: RNA Bind-n-Seq
Form: RNA
Medium: in vitro
Tested at: 365 nM
Setting: natural RNA segment, single round, ends assumed
Reference: no-protein control
Reading: higher = stronger binding
Target sequence (chain): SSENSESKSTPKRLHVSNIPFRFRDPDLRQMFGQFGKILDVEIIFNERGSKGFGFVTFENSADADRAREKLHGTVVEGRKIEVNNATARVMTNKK
`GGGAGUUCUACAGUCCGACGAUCACCAGGCCAGUCUCCACUCCUCACAAGGAUCUAUGAUGAGCUGCGCAAUUCUUCCCAGGGCCCUGUGACCCUGUGUUCCACCCCGACCCCACACUGGACUAGUCUAUGCCUGGAAUUCUCGGGUGCCAA` — result for “RBNS enrichment (R)”: 0.267.
Under “RBNS enrichment (R)”, `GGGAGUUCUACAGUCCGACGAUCUUCUCAACCUCUGCACAGUUGACAUUUUGAGCCAAAUUAUUCUUUGUUGUGGUAGGCAGUCCUGUGCAUUUUAGAAUGUUUGGCAUUAUCUCUGGCCUCCCCCACAAGAUUGGAAUUCUCGGGUGCCAA` is recorded as 1.12.
For `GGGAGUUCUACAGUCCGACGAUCAGUGCUCUCCCCUAAGUUGGGUGCUAAGAGCUUUUGUCAGUGAGGGGCCUCUGUCAUUGUCUCAAAGACAGAGCUUAAAGAGGUCAGAAUGAGUUCUCUGUUGUGCCCCCUGGAAUUCUCGGGUGCCAA`, “RBNS enrichment (R)” read 0.378.
`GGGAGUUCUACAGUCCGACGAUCAAAGAUAUGUCAUAGUUGCCAUAAAAGAGGCUGAUUGUGAAAUUCUGGUGGACUAGGCAAGGUACAGUUUAUGGUUAUCCCCAUCAUCAGCUUAGGUCACUUGAACAUGUUGGAAUUCUCGGGUGCCAA`: “RBNS enrichment (R)” 0.413.
Under “RBNS enrichment (R)”, `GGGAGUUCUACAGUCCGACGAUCUGUUUGUACUUGAGGUAUGUAACAUUUGUAUACCUGAACUUAUUUUAAAGAUGAACUGAAAUGCACAUAGCCAAGUCUUGAGAUACAAGAUUGAAUGUGUAUUUCUUAAAUGGAAUUCUCGGGUGCCAA` is recorded as 0.431.
For `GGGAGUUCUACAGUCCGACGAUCCAGCAUCCUGUGUGAGAACACAUUUUGAAAGCCCAAUGACAUCAACUGGGUAAAGGAAACACUAACCUGUUUCCAGUCUCCAGACAAAGGUUUAAAGCUUUUCAAGAACUUGGAAUUCUCGGGUGCCAA`, “RBNS enrichment (R)” read 0.374.
`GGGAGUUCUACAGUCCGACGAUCUUUUAUUUUUAAGAAAAAAACUUUGUAAUGCUUGUGAUUCCAUCUGGGCAAAAGUCUGAAGAUCUGAAAUAACUUUAUAUCAAACCAUUGAUCAAUAAACAGCUACUAAUUGGAAUUCUCGGGUGCCAA`: “RBNS enrichment (R)” 0.433.
Under “RBNS enrichment (R)”, `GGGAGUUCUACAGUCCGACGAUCCUCAUUCACUGCCAGACCCCACAUGGAGAGGCACCCAAAAGGAGAAGUUGACCAUUCCAUGUCUCAAGUAUGAGGACCCAGGGACCCCAGGGAAUCUGUUUUCUAUUUACUGGAAUUCUCGGGUGCCAA` is recorded as 0.413.

Set 3
Target: RING finger protein unkempt homolog, zinc fingers 1-6, GST-SBP tag (UNK, Homo sapiens, UniProt Q9C0B0, residues 30-357)
Technique: RNA Bind-n-Seq
Form: RNA
Medium: in vitro
Tested at: not given
Setting: RNA with constant flanks, ends assumed
Reference: input RNA pool
Reading: higher = stronger binding
Target sequence (chain): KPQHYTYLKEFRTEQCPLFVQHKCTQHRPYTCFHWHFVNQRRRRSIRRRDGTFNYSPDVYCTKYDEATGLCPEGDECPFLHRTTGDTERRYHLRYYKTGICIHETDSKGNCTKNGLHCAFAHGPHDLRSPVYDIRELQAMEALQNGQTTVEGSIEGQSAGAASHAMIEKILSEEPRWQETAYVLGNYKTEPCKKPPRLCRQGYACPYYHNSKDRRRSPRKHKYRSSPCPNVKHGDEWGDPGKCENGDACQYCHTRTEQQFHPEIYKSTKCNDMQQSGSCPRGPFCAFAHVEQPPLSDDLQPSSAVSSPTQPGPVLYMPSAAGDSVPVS
The bound/input enrichment of `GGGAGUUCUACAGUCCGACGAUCGUUCGCUUGUAUCGUAAAGCAUUAGAAGUCUUCCCAGAGUUUGCUGCUGCCCAUUCAAAUUCCGCAAGUGUACUGCAGCAGCAGGGAAAACUGCAGGAAGCUCUGAUGCAUUAUAAGGAGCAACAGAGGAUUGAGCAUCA` is reported as 0.126 ratio.
`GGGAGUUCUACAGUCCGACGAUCGCUGUCAUGUAUGUAUGCAAGGUGGCAGCUGAGUGGAGAAACACCUUCCACAAGGAUGUUGCCGUUGAUCUGGUGUGUUAUCGACGAAAUGGCCACAAUGAGAUGGACGAACCUAUGUUUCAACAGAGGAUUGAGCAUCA` has a bound/input enrichment of 0.0962 ratio.
`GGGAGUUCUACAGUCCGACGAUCCCAGUAUUCAACAUGUCAUACAAUCCAGCAGAAAACGCAGUGCUGCUCUGCACCAGAGCAAGCAAUCCCGAGAACAGUACCUACGACCUAUACACCAUCCCCAAAGACGCAGACUCCCAGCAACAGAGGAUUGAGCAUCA` has a bound/input enrichment of 0.423 ratio.
With `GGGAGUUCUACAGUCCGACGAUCAAUGUGACUUCCAUGAUAAACCUAAAGAAGACUACUUCAUCAGCUGAUGCUAAAAAUGUCCGUGUGACAUCUGAGGCUUUAUCUUCAAAUCCUUCCUACAACAGAGAAAAGCGUGUUUAUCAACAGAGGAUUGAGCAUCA` the bound/input enrichment was 0.107 ratio.
With `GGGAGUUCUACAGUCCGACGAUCAAGCUCCCGAAGGCAUUAUACCCGGUCACGGUCUCGCUCCCGCUCCCAUAGACGAUCACGCCGCAGGUCUUACAGUCGAGAUUAUCGUAGACGGCACAGCCACAGCCAUUCUCCCAUGUCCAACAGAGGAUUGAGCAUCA` the bound/input enrichment was 1.39 ratio.

Set 4
Target: CCNB3, cyclin fold, Cln2 fusion (human)
Technique: yeast growth competition, sequencing
Medium: yeast
Setting: weak parent motif
Reference: not given
Reading: higher = stronger binding
Starting sequence: MASTL docking peptide (human); PMIAKNLMCELDE
`C9S` — result for “normalised enrichment score”: -0.241.
Under “normalised enrichment score”, `C9V` is recorded as -0.122.
`K5C` — result for “normalised enrichment score”: 0.326.
`C9F` — result for “normalised enrichment score”: 0.0332.
Under “normalised enrichment score”, `I3G` is recorded as 0.186.
`L11V`: “normalised enrichment score” 0.0642.
For `E10W`, “normalised enrichment score” read 0.233.
`I3W` — result for “normalised enrichment score”: -0.175.
Under “normalised enrichment score”, `L7N` is recorded as -0.234.
Under “normalised enrichment score”, `D12L` is recorded as 0.0203.
For `E10K`, “normalised enrichment score” read 0.14.
Under “normalised enrichment score”, `L7Q` is recorded as -0.168.
`I3E`: “normalised enrichment score” -0.188.
Under “normalised enrichment score”, `L11R` is recorded as -0.154.
`L7G`: “normalised enrichment score” -0.299.
For `M8S`, “normalised enrichment score” read 0.0022.
Under “normalised enrichment score”, `E10R` is recorded as 0.193.

Set 5
Target: ABI1, truncated, D143A, DHFR fusion (Arabidopsis thaliana)
Technique: DHFR PCA, deep sequencing
Medium: yeast
Setting: methotrexate growth selection, single substitutions
Added: (+)-ABA 0.0091 µM
Reference: wild-type fitted maximum
Reading: higher = stronger binding
Starting sequence: PYL1, truncated, DHFR fusion (Arabidopsis thaliana); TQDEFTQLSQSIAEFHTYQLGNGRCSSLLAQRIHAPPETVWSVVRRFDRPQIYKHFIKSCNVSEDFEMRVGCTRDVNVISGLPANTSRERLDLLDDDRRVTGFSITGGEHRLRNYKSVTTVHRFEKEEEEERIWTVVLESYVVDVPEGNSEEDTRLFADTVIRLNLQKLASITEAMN; partner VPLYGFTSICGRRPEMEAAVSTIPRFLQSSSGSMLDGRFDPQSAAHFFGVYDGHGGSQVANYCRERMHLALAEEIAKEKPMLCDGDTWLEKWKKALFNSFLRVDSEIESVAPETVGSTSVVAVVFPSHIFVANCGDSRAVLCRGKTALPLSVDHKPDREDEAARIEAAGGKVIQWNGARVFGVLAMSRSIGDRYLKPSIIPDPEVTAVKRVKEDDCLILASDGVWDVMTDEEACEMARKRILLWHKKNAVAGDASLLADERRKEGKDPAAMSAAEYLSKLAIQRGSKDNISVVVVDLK
Under “relative binding score”, `V137A` is recorded as 1.82%.
For `Q2C`, “relative binding score” read 34.1%.
`D95P`: “relative binding score” -8.03%.
Under “relative binding score”, `Q167G` is recorded as 3.01%.
Under “relative binding score”, `V143G` is recorded as -1.04%.
`T6S` — result for “relative binding score”: 33.7%.
`T6K` — result for “relative binding score”: 53.5%.
Under “relative binding score”, `N165H` is recorded as -1.72%.
`K54V`: “relative binding score” -5.87%.
Under “relative binding score”, `I52W` is recorded as 8.01%.
`Y115F` — result for “relative binding score”: 21.9%.
`L164H` — result for “relative binding score”: -1.26%.
`L169R` — result for “relative binding score”: -1.61%.
Under “relative binding score”, `L91P` is recorded as -11.1%.
`A170R`: “relative binding score” 23.7%.
`V70L`: “relative binding score” 3.39%.
`V142M`: “relative binding score” 5.66%.
`E89K`: “relative binding score” -6.99%.
`T73A`: “relative binding score” 4.44%.

For quick reference, copied from above (set 4):
For `E10W`, “normalised enrichment score” read 0.233.
`I3W` — result for “normalised enrichment score”: -0.175.
Under “normalised enrichment score”, `L7N` is recorded as -0.234.
Under “normalised enrichment score”, `D12L` is recorded as 0.0203.
For `E10K`, “normalised enrichment score” read 0.14.
Under “normalised enrichment score”, `L7Q` is recorded as -0.168.
`I3E`: “normalised enrichment score” -0.188.
